Measured values gathered from unrelated publications.
Each line is one published result; not all experiments were run side by side. ± gives the spread as reported. Values after ≈ are worked out from the molar mass of the structure shown.
Organism: Escherichia coli

Compound | assay | system | conditions | measurement | result
CC(C)=CCC/C(C)=C/CNCCNC1C2CC3CC(C2)CC1(O)C3 (stereo not drawn) | – | K12 | – | IC50 | 118 ± 2.2 µM
C[C@]1(COC(=O)c2ccc(O)c(O)c2)[C@H](C(=O)O)N2C(=O)/C(=C/c3ccccn3)[C@H]2S1(=O)=O | broth microdilution | TG1 expressing CMY-2 | 16 µg/mL | MIC of ceftazidime | ≤ 0.06 µg/mL
CC[C@H](C)[C@H](NC(=O)[C@H](CCCCN)NC(=O)[C@H](CCCCN)NC(=O)[C@H](CC(C)C)NC(=O)[C@H](CCCCN)NC(=O)[C@H](CCC(=O)O)NC(=O)[C@H](CCCCN)NC(=O)[C@@H](NC(=O)[C@H](CCCCN)NC(=O)[C@H](CC(N)=O)NC(=O)[C@H](CCCNC(=N)N)NC(=O)[C@H](Cc1ccccc1)NC(=O)[C@H](CCCCN)NC(=O)[C@H](CCCNC(=N)N)NC(=O)[C@H](CC(C)C)NC(=O)[C@H](CCCNC(=N)N)NC(=O)[C@H](CCCCN)NC(=O)[C@H](CCCNC(=N)N)NC(=O)[C@H](CC(C)C)NC(=O)[C@@H](N)CC(C)C)[C@@H](C)CC)C(=O)NCC(=O)N[C@@H](CCC(N)=O)C(=O)N[C@@H](CCCCN)C(=O)N[C@H](C(=O)N[C@@H](CCC(N)=O)C(=O)NCC(=O)N[C@@H](Cc1ccccc1)C(=O)N[C@H](C(=O)N1CCC[C@H]1C(=O)N[C@@H](CCCCN)C(=O)N[C@@H](CC(C)C)C(=O)N[C@H](C(=O)N1CCC[C@H]1C(=O)N[C@@H](CCCNC(=N)N)C(=O)N[C@H](C(=O)N[C@@H](CCC(=O)O)C(=O)N[C@@H](CO)C(=O)O)[C@@H](C)O)C(C)C)C(C)C)[C@@H](C)CC | inhibition zone | Am. J16c | – | lethal concentration | 1.84 µM
CCCCCC(=O)NCC(=O)N[C@@H](CC(C)C)C(=O)N[C@@H](CC(C)C)C(=O)N[C@@H](CCCCN)C(=O)N[C@@H](CCCNC(=N)N)C(=O)N[C@H](C(=O)N[C@@H](CCCCN)C(=O)N[C@H](C(=O)N[C@@H](CC(C)C)C(=O)N[C@@H](CC(C)C)C(=O)NCCCC[C@H](NC(=O)[C@H](CC(C)C)NC(=O)[C@H](CC(C)C)NC(=O)[C@@H](NC(=O)[C@H](CCCCN)NC(=O)[C@@H](NC(=O)[C@H](CCCNC(=N)N)NC(=O)[C@H](CCCCN)NC(=O)[C@H](CC(C)C)NC(=O)[C@H](CC(C)C)NC(=O)CNC(=O)CCCCC)[C@@H](C)CC)[C@@H](C)O)C(N)=O)[C@@H](C)O)[C@@H](C)CC | checkerboard | ATCC 25922 | together with: rifampicin | FIC index | 0.25
CC[C@H](C)[C@H](NC(=O)[C@H](CO)NC(=O)[C@H](CO)NC(=O)[C@H](Cc1ccccc1)NC(=O)CN)C(=O)N[C@@H](Cc1ccccc1)C(=O)N[C@@H](CCCNC(=N)N)C(=O)NCC(=O)N[C@H](C(=O)N[C@@H](C)C(=O)N[C@@H](CCCCN)C(=O)N[C@@H](Cc1ccccc1)C(=O)N[C@@H](C)C(=O)N[C@@H](CO)C(=O)N[C@@H](CCCCN)C(=O)NCC(=O)N[C@@H](CC(C)C)C(=O)NCC(=O)N[C@@H](CCCCN)C(=O)N[C@@H](CC(=O)O)C(=O)N[C@@H](CC(C)C)C(=O)N[C@@H](C)C(=O)N[C@@H](CCCNC(=N)N)C(N)=O)C(C)C | – | ATCC 8739 | 4 × MIC | time to complete killing | 30 min
CCCC(=O)NCC(=O)N[C@@H](CC(C)C)C(=O)N[C@@H](CC(C)C)C(=O)N[C@@H](CCCCN)C(=O)N[C@@H](CCCNC(=N)N)C(=O)N[C@H](C(=O)N[C@@H](CCCCN)C(=O)N[C@H](C(=O)N[C@@H](CC(C)C)C(=O)N[C@@H](CC(C)C)C(=O)NCCCC[C@H](NC(=O)[C@H](CCCCNC(=O)[C@H](CC(C)C)NC(=O)[C@H](CC(C)C)NC(=O)[C@@H](NC(=O)[C@H](CCCCN)NC(=O)[C@@H](NC(=O)[C@H](CCCNC(=N)N)NC(=O)[C@H](CCCCN)NC(=O)[C@H](CC(C)C)NC(=O)[C@H](CC(C)C)NC(=O)CNC(=O)CCC)[C@@H](C)CC)[C@@H](C)O)NC(=O)[C@H](CC(C)C)NC(=O)[C@H](CC(C)C)NC(=O)[C@@H](NC(=O)[C@H](CCCCN)NC(=O)[C@@H](NC(=O)[C@H](CCCNC(=N)N)NC(=O)[C@H](CCCCN)NC(=O)[C@H](CC(C)C)NC(=O)[C@H](CC(C)C)NC(=O)CNC(=O)CCC)[C@@H](C)CC)[C@@H](C)O)C(N)=O)[C@@H](C)O)[C@@H](C)CC | checkerboard | ATCC 25922 | together with: polymyxin B | FIC index | 0.25
CC[C@H](C)[C@H](NC(=O)[C@H](CCCCN)NC(=O)[C@H](CCCCN)NC(=O)[C@H](CC(C)C)NC(=O)[C@H](CCCCN)NC(=O)[C@H](CCC(=O)O)NC(=O)[C@H](CCCCN)NC(=O)[C@@H](NC(=O)[C@H](CCCCN)NC(=O)[C@H](CC(N)=O)NC(=O)[C@H](CCCNC(=N)N)NC(=O)[C@H](Cc1ccccc1)NC(=O)[C@H](CCCCN)NC(=O)[C@H](CCCNC(=N)N)NC(=O)[C@H](CC(C)C)NC(=O)[C@H](CCCNC(=N)N)NC(=O)[C@H](CCCCN)NC(=O)[C@H](CCCNC(=N)N)NC(=O)[C@H](CC(C)C)NC(=O)CN)[C@@H](C)CC)C(=O)NCC(=O)N[C@@H](CCC(N)=O)C(=O)N[C@@H](CCCCN)C(=O)N[C@H](C(=O)N[C@@H](CCC(N)=O)C(=O)NCC(=O)N[C@@H](Cc1ccccc1)C(=O)N[C@H](C(=O)N1CCC[C@H]1C(=O)N[C@@H](CCCCN)C(=O)N[C@@H](CC(C)C)C(=O)N[C@@H](C)C(=O)N1CCC[C@H]1C(=O)N[C@@H](CCCNC(=N)N)C(=O)N[C@H](C(=O)N[C@@H](CC(=O)O)C(=O)N[C@@H](Cc1ccc(O)cc1)C(=O)O)[C@@H](C)O)C(C)C)[C@@H](C)CC | inhibition zone | Am. J23a | – | lethal concentration | 1.44 µM
CC(C)C[C@H](NC(=O)[C@H](CCCNC(=N)N)NC(=O)[C@H](C)NC(=O)[C@H](CC(C)C)NC(=O)[C@H](CCCNC(=N)N)NC(=O)[C@H](C)NC(=O)[C@H](CCCCN)NC(=O)[C@H](CC(C)C)NC(=O)[C@H](CCCNC(=N)N)NC(=O)[C@H](Cc1ccc(O)cc1)NC(=O)[C@H](CC(C)C)NC(=O)[C@H](CCCNC(=N)N)NC(=O)[C@H](C)NC(=O)[C@H](CCCNC(=N)N)NC(=O)[C@H](CC(C)C)NC(=O)[C@H](CCCCN)NC(=O)[C@H](C)NC(=O)[C@H](CC(C)C)NC(=O)[C@H](CCCNC(=N)N)NC(=O)[C@H](C)NC(=O)[C@@H](N)CCCCN)C(N)=O | LIVE/DEAD staining | 10 mM phosphate buffer | MIC, 30 min, pH 7.4, 37 °C | dead cells | ≤ 80%
CC[C@H](C)[C@H](N)C(=O)N[C@@H](CC(C)C)C(=O)N[C@@H](CO)C(=O)N[C@@H](C)C(=O)N[C@H](C(=O)N[C@@H](Cc1c[nH]c2ccccc12)C(=O)N[C@@H](CO)C(=O)NCC(=O)N[C@H](C(=O)N[C@@H](CCCCN)C(=O)N[C@@H](CO)C(=O)N[C@@H](CC(C)C)C(=O)N[C@@H](Cc1ccccc1)C(N)=O)[C@@H](C)CC)[C@@H](C)CC | – | pb3 | – | growth inhibitory concentration | 40 µM
C[C@@](O)(C(F)F)[C@H](NC(=O)c1ccc(C#CC#CC2CC2)cc1)C(=O)NO | – | NDM-1, infected animal | 10 mg/kg every 12 h | survival | 90%
CCCCCCCCCCCCCCC(=O)N[C@@H](CCCCN)C(=O)N[C@@H](CCCCN)C(=O)N[C@@H](CCCCN)C(=O)N[C@@H](CCCCN)C(N)=O | – | K12 | – | MBC | 32 µg/mL (≈ 42.4 µM)
O=C(O)[C@@H]1Cc2c([nH]c3ccccc23)[C@@H](c2ccc(I)cc2F)N1 | – | BL21(DE3) | 125 µM, 18 h | growth inhibition | 0%

For quick reference, copied from above:
Compound | assay | system | conditions | measurement | result
O=C(O)[C@@H]1Cc2c([nH]c3ccccc23)[C@@H](c2ccc(I)cc2F)N1 | – | BL21(DE3) | 125 µM, 18 h | growth inhibition | 0%
